Measurements gathered from unrelated publications.
Each line is one published result; not all experiments were run side by side. ± marks the error that the study gave.

Compound	assay	system	conditions	endpoint	value
COc1cc2c(Nc3ccc(Cl)c(Cl)c3F)ncnc2cc1OC[C@@H]1C[C@@H]2CN(C)C[C@@H]2C1	rapid equilibrium dialysis	FVB mouse, brain tissue	5 µM, 6 h, pH 7.4	unbound fraction	0.11%
CCn1ncc2c1-c1cnc(N)c(c1)O[C@H](C)c1cc(F)ccc1-c1nn(C)nc1C2		female Balb/c nude mouse	3 mg/kg twice daily, 1 h, steady state	unbound brain concentration	18 ± 2 nM
NS(=O)(=O)c1nnc(NC(=O)CCC2CC3CCC2C3)s1 (centres unmarked)		mouse, plasma		unbound fraction	0.06
Cc1c(C(=O)O)ccc2c3n(nc12)[C@@H]1[C@H](C3)N(CC2CC2)[C@@]2(C(=O)Nc3cc(Cl)ccc32)[C@H]1c1cccc(Cl)c1F		CD1 mouse, plasma	po, 1.5 mg/kg	unbound Cmax	7.5 nM
C[C@@H](N)COc1ccc(-c2cnc3ccc(N[C@H](C)c4cccc(F)c4)nn23)cc1		female Balb/c nude mouse	100 mg/kg once daily, 12 h (tau/2), steady state	unbound brain concentration	63 ± 20 nM
C=CC(=O)N1CC2(CCN(c3nc4c(c(-c5cc(O)cc6ccccc56)c3C#N)COC(C)(C)C4)C2)C1		mouse, plasma	oral, 5 mg/kg	unbound AUC	0.013 µM·h
CN1CCN(C(=O)[C@H](CCCN[C@@H]2C[C@H]2c2ccc(F)cc2)NC(=O)c2ccc(-n3ccnn3)cc2)CC1		NOD/SCID mouse MV4-11 xenograft, plasma	oral, 7.5 mg/kg/day, 24 h	unbound plasma concentration	1.1 ng/mL
Cc1ccc(CCC(=O)Nc2nnc(S(N)(=O)=O)s2)cc1		BALB/c mouse, male, plasma	oral, 20 mg/kg, 0.5 h	unbound plasma concentration	3.23 ng/mL
CO[C@H]1/C=C/O[C@@]2(C)Oc3c(C)c(O)c4c(c3C2=O)C2=NC3(CCN(CC(C)C)CC3)NC2=C(NC(=O)/C(C)=C/C=C/[C@H](C)[C@H](O)[C@@H](C)[C@@H](O)[C@@H](C)[C@H](OC(=O)Nc2c(C)nc3ccccn23)[C@@H]1C)C4=O	rapid equilibrium dialysis	mouse, plasma		unbound fraction	8.64
NS(=O)(=O)c1nnc(NC(=O)CCC2CCC(F)(F)CC2)s1		mouse, plasma		unbound fraction	0.22
CCn1ncc2c1-c1cnc(N)c(c1)O[C@H](C)c1cc(F)ccc1-c1nn(C)nc1C2		Balb/c nude mouse, female, PDX, plasma	po, 5 mg/kg BID, 1 h, 5 days dosing	unbound concentration	500 ± 15 nM

Repeated from above:
Compound	assay	system	conditions	endpoint	value
C=CC(=O)N1CC2(CCN(c3nc4c(c(-c5cc(O)cc6ccccc56)c3C#N)COC(C)(C)C4)C2)C1		mouse, plasma	oral, 5 mg/kg	unbound AUC	0.013 µM·h
